Published values collected from several papers.
Every numbered part comes from another study and shows a few of its results, in no order. Substitutions count along the parent as printed.

Series 1 — method: universal PBM; molecule type: double-stranded DNA, one strand shown; matrix: in vitro; concentration: 600 nM; reading: higher = stronger binding
Target: Sal-like protein 4, full length isoform A (SALL4, Homo sapiens, UniProt Q9UJQ4, residues 1-1053)
Chain of UniProt Q9UJQ4 (whole entry, looked up): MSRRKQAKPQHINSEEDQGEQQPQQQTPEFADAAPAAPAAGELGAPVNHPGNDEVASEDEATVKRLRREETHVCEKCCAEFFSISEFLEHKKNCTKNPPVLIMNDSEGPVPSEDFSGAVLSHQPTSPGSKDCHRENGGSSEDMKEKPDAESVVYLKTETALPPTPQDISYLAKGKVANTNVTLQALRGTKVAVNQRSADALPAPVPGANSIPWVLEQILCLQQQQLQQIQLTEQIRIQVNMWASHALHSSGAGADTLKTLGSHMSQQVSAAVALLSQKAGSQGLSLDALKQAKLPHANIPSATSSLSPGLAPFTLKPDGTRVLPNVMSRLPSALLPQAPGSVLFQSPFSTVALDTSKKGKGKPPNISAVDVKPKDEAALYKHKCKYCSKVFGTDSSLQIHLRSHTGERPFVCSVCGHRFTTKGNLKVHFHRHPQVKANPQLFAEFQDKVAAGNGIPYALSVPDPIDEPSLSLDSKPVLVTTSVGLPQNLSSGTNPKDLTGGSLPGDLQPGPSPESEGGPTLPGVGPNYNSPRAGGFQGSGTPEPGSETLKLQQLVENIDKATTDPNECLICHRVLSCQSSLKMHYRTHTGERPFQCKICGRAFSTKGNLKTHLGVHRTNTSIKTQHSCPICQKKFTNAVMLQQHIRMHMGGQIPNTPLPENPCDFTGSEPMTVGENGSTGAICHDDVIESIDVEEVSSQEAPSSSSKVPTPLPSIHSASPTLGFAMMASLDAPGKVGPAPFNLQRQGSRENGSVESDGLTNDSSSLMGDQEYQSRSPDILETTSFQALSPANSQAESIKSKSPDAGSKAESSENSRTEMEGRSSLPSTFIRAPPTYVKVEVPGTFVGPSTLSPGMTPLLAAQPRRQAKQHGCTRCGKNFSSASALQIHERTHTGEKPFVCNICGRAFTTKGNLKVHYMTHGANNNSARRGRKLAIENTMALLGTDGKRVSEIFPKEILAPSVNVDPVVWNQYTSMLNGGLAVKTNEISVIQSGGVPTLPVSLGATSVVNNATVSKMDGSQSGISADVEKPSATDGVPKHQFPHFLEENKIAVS
Setting: 8-mer, flanks averaged, mean of replicates
| Oligonucleotide | E-score |
| --- | --- |
| CCTCAACC | -0.215 |
| AAGCACAT | -0.0409 |
| AGGCACAC | -0.0926 |
| CAGTACGG | 0.00274 |
| AGGGAAGC | -0.0276 |
| CAAAGTGG | -0.174 |
| AGCGGACT | -0.204 |
| CCACATGA | 9e-05 |
| GTCCCTAA | -0.0124 |
| CAGCGTGC | -0.278 |
| AGCAATAG | -0.0337 |
| ATCGAAAT | 0.169 |
| GAGGATAC | 0.0382 |
| AGTAATTC | 0.214 |
| AGGCGCAT | -0.256 |
| ACAGCCAA | -0.029 |
| CAATATTC | 0.332 |
| CACAGCAC | -0.216 |
| GGTGCTAC | -0.223 |
| GCGCTGAC | -0.259 |
| GTTCCCTA | -0.0283 |
| AGACGCTG | -0.168 |
| CCAGGTGC | -0.259 |
| TTCCGAAA | 0.224 |
| AGTTTATC | 0.195 |

Series 2 — method: protein binding microarray; molecule type: double-stranded DNA, one strand shown; matrix: in vitro; concentration: not given; reference: not given; reading: higher = stronger binding
Target: Histone acetyltransferase KAT6A, winged helix 1, GST fusion (KAT6A, Homo sapiens, UniProt Q92794, residues 1-85)
Setting: 8-mer, flanks averaged, mean of 2 arrays, mostly near background
Residues (chain): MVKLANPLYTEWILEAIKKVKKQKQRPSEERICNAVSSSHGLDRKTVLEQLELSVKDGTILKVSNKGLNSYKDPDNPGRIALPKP
| Oligonucleotide | E-score |
| --- | --- |
| AGATGAGG | -0.258 |
| CGACGAAG | -0.0559 |
| CCTTAGCG | 0.296 |
| CGCTGTAG | 0.225 |
| AACGTCTC | -0.162 |
| AACGAAGA | -0.131 |
| ATACTTAA | -0.0693 |
| ATGTTTGC | -0.0714 |
| AAGCCAGG | -0.22 |
| TAAGATCA | -0.074 |
| CACGGCAA | 0.362 |
| CAGATCGC | 0.182 |
| CTCATTCC | -0.00144 |
| GAAGCCAC | -0.0446 |
| AAAAGAGA | -0.226 |
| TAACACTA | 0.0898 |
| AACAATGG | -0.195 |
| AGGCGTTA | 0.0704 |
| ACCCCCCC | -0.0615 |
| AGAATTAC | 0.0228 |
| TACCTTCA | -0.137 |
| CCTGGTAG | -0.16 |
| CCTGAGCA | -0.189 |
| CGATTGGA | -0.257 |
| AGACGTCA | -0.087 |

Series 3 — method: aptamer microarray, sandwich; molecule type: DNA with 2'F-ANA; matrix: in vitro; concentration: 200 nM; with: Cy3 exosite-II aptamer, 400 nM; reading: higher = stronger binding; oligonucleotide: GGTTGGTGTGGTTGG
Target: Prothrombin, mature alpha-thrombin (F2, Homo sapiens, UniProt P00734)
Setting: whole 15-mer aptamer, many near background
| Modification | mean fluorescence intensity [a.u.] |
| --- | --- |
| 2'F-ANA at 1 3 6 7 8 14 | 107 |
| 2'F-ANA at 2 6 7 8 14 15 | 156 |
| 2'F-ANA at 3 4 7 13 | 651 |
| 2'F-ANA at 4 8 10 13 | 66.4 |
| 2'F-ANA at 1 6 7 10 11 14 15 | 53.7 |
| 2'F-ANA at 2 3 6 9 12 13 14 15 | 353 |
| 2'F-ANA at 1 2 3 4 5 6 15 | 61.4 |
| 2'F-ANA at 5 6 7 8 10 11 12 13 14 15 | 75.7 |
| 2'F-ANA at 2 7 8 9 11 12 15 | 649 |
| 2'F-ANA at 1 2 5 6 9 10 13 | 70 |
| 2'F-ANA at 4 5 6 7 9 11 13 15 | 55.9 |
| 2'F-ANA at 1 4 7 9 10 11 | 48.8 |
| 2'F-ANA at 5 6 9 11 12 14 | 52.7 |
| 2'F-ANA at 1 4 5 10 11 12 13 15 | 48 |
| 2'F-ANA at 1 5 10 14 15 | 52.4 |
| 2'F-ANA at 3 4 5 9 11 13 15 | 65.9 |
| 2'F-ANA at 2 6 9 10 12 13 15 | 127 |
| 2'F-ANA at 1 2 3 5 6 10 11 12 14 | 47.8 |
| 2'F-ANA at 3 4 6 8 9 11 13 15 | 364 |
| 2'F-ANA at 1 2 4 5 8 9 11 12 14 15 | 48.4 |
| 2'F-ANA at 3 7 9 10 11 14 15 | 400 |
| 2'F-ANA at 4 5 8 9 10 11 12 13 14 | 65.1 |
| 2'F-ANA at 3 4 5 7 8 9 10 14 | 47.7 |
| 2'F-ANA at 2 3 6 7 9 11 14 15 | 378 |
| 2'F-ANA at 4 5 6 10 13 14 15 | 45.2 |

Series 4 — Molecule: RKLDLEGIGR; molecule type: peptide; reading: direction not given
| target or system | assay | test system | conditions | enrichment score |
| --- | --- | --- | --- | --- |
| Cln2 (Saccharomyces cerevisiae) | peptide binding, competitive growth sequencing | Saccharomyces cerevisiae, unfused Cln2 strain | peptide tiling library | -0.99 |
| Saccharomyces cerevisiae | cell growth, competitive growth deep sequencing |  | peptide tiling library, with: cyclin E2-Cln2 fusion | 0.659 |
| Saccharomyces cerevisiae | pheromone growth arrest, yeast competitive growth sequencing | no Cln2 overexpression | peptide tiling library | 0.48 |
|  | peptide binding | yeast competitive growth | with: B1-Cln2 chimera | -0.729 |
| human cyclin A2 | competitive growth deep sequencing | Saccharomyces cerevisiae, cyclin A2-Cln2 fusion strain | peptide tiling library | 2.17 |
| Saccharomyces cerevisiae | binding, yeast competitive growth sequencing |  | cyclin B2-Cln2 chimera | -0.0717 |
| Saccharomyces cerevisiae | binding, competitive growth deep sequencing | cyclin E1-Cln2 fusion strain | peptide tiling library | -0.358 |
| Saccharomyces cerevisiae | binding, yeast competitive growth sequencing | cyclin D1-Cln2 strain, peptide tiling library | pooled screen | -0.534 |
| Saccharomyces cerevisiae | cell growth, competitive growth deep sequencing |  | peptide tiling library, with: cyclin F-Cln2 fusion | 3.07 |

Series 5 — method: protein-binding microarray; molecule type: double-stranded DNA, one strand shown; matrix: in vitro; concentration: 250 nM; setting: 60-bp whole probe; with: salmon DNA 0.4 mg/ml; reference: random background probes; reading: higher = stronger binding; all sequences stand within: GCCTAGCAC … GTCTTGATTCGCTTGACGCTGCTG
Target: Interferon regulatory factor 5, full length, phosphomimetic (IRF5, Homo sapiens, UniProt Q13568-2, residues 1-514, K96S/S451D/S453D/S456D/S462D)
| Oligonucleotide | log fluorescence |
| --- | --- |
| CTTTACTTCACTCTCTGCTTGTGCTAG | 0.775 z-score |
| TTAGATTTCCTTATCCTTTAGTGCTAG | 0.826 z-score |
| TAGCTTCTCAATTAAAAAAAGTGCTAG | 0.545 z-score |
| GACGGTCTCGGTTTCGGAACGTGCTAG | 4.49 z-score |
| GACGGTTTCTTTTTCCTGACGTGCTAG | 1.54 z-score |
| TCAACTTTCCATTTCTGACTGTGCTAG | 1.82 z-score |
| TTCACTTTCTTTACTTCACTGTGCTAG | 3.66 z-score |
| TCAGGACTGGGACTGGGTTAGTGCTAG | -0.462 z-score |
| GACGGTGTCGGTATCGGGACGTGCTAG | 0.845 z-score |
| GACGTTTCCCTTTTCCTGACGTGCTAG | 1.29 z-score |
| TCAACACTAGTTTTCATACTGTGCTAG | 1.17 z-score |
| CTCTGTCCCTGTTTCTACTGGTGCTAG | 0.668 z-score |
| TTAGATATCGTGACTGGATTAGTGCTA | 0.511 z-score |
| TTAGACATCGGGACTGGATTAGTGCTA | 0.0515 z-score |
| TCATTTTCCTACATCAGACTGTGCTAG | 1.07 z-score |
| GACGGTTTCCTACTACTGACGTGCTAG | 0.489 z-score |

Series 6 — method: DHFR PCA, deep sequencing; matrix: yeast; with: (+)-ABA 17 µM; reference: wild-type fitted maximum; reading: higher = stronger binding
Target: ABI1, truncated, D143A, DHFR fusion (Arabidopsis thaliana)
Setting: methotrexate growth selection, single substitutions
Starting sequence: PYL1, truncated, DHFR fusion (Arabidopsis thaliana); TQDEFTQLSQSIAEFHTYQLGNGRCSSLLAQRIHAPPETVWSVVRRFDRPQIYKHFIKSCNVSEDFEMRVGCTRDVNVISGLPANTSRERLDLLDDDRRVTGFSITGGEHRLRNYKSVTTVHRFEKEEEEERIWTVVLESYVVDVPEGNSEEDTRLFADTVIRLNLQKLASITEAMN
| Variant | relative binding score [%] |
| --- | --- |
| L166C | 3.83 |
| S27H | 81.7 |
| T120V | -5.52 |
| E129T | 83.4 |
| A30V | 82.3 |
| G23Y | 51.4 |
| Q19L | 64.3 |
| G102S | 82.7 |
| F157I | 42.8 |
| N149L | 8.49 |
| E14F | 29.7 |
| V78R | 7.86 |
| T119W | -15.8 |
| A13G | 74.9 |
| I105A | 10.9 |
| G23R | 75.4 |
| D3R | 74.3 |
| L20K | 86 |
| L93P | 19 |
| T135A | 54.1 |
| F15N | 48.4 |
| C72N | 71.9 |
| T160F | 91.6 |
| A175N | 92.3 |
| N149R | 9.46 |

Some of these lines once more (series 2):
| Oligonucleotide | E-score |
| --- | --- |
| TACCTTCA | -0.137 |
| CCTGGTAG | -0.16 |
| CACGGCAA | 0.362 |
| ACCCCCCC | -0.0615 |
| CAGATCGC | 0.182 |
| CTCATTCC | -0.00144 |
| GAAGCCAC | -0.0446 |
| AACGTCTC | -0.162 |
| AGGCGTTA | 0.0704 |
| TAAGATCA | -0.074 |
